Experimental data of several laboratories.
Every numbered part comes from another study and shows a few of its results, in no order. Values joined by “and” are separate records of one study, mostly repeats; a detail may differ.

Study 1
Target: Histone acetyltransferase KAT6A, both winged helices, GST fusion (KAT6A, Homo sapiens, UniProt Q92794, residues 1-181)
Method: protein binding microarray
Molecule type: double-stranded DNA, one strand shown
Matrix: in vitro
Tested at: not given
Notes: 8-mer, flanks averaged, mean of 2 arrays, mostly near background
Reference: not given
Direction: higher = stronger binding
Endpoint: E-score
Construct (chain): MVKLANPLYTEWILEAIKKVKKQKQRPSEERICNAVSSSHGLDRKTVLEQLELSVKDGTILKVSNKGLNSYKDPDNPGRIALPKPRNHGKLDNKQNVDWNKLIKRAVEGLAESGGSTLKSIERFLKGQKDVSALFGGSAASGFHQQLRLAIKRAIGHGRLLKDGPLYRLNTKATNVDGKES
CCTACCGA: -0.0367
AGAAACAA: -0.0696
ATCATAAG: -0.0768

Study 2
Target: Interferon regulatory factor 5, full length, phosphomimetic (IRF5, Homo sapiens, UniProt Q13568-2, residues 1-514, K96S/S451D/S453D/S456D/S462D)
Method: protein-binding microarray
Molecule type: double-stranded DNA, one strand shown
Matrix: in vitro
Tested at: 250 nM
Notes: 60-bp whole probe
With: salmon DNA 0.4 mg/ml
Reference: random background probes
Direction: higher = stronger binding
Endpoint: log fluorescence
GCCTAGCACTTAGGTTTCGGTTCCGGCTAGTGCTAGGTCTTGATTCGCTTGACGCTGCTG: 9.92 z-score
GCCTAGCACTTGGGTCTCCTACTGCTTTAGTGCTAGGTCTTGATTCGCTTGACGCTGCTG: -0.493 z-score
GCCTAGCACTTAGCACTGGGGACTGGATTAGTGCTAGTCTTGATTCGCTTGACGCTGCTG: -0.388 z-score

Study 3
Target: PABPC1L2, full length, GST fusion (mouse, UniProt A0ABA7IW68)
Method: RNAcompete
Molecule type: RNA
Matrix: in vitro
Tested at: 20 nM
Notes: 7-mer, probes averaged, single round
Reference: mean of 7-mers
Direction: higher = stronger binding
Endpoint: 7-mer Z-score
Target sequence (chain): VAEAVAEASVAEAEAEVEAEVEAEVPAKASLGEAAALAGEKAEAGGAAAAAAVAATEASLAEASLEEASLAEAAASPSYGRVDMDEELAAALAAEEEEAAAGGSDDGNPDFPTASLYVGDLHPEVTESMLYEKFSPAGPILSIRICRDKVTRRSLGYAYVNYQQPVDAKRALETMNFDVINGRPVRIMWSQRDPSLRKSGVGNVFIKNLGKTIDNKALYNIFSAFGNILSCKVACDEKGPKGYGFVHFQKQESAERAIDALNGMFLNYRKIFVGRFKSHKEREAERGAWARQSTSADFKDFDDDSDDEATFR
GAGACUU: -0.0283
UGCGCGU: -0.238
ACAUAGG: 0.129
GCGAAUA: 0.0605
AGAGGUC: -0.195

Other studies, line by line
PhoQ, residues 284 288 289 292 302 303 TYGVAM — fold induction (PhoP, residues 12 14 15 18 19 LWHCS (Escherichia coli, UniProt P23836); Sort-seq, item: YFP reporter; E. coli; PhoQ-PhoP variant library, with: 10 µM Mg2+; reference: high Mg2+ state, higher = stronger signaling): 5.48 and 14.2

Excerpt of the above (other studies, line by line):
PhoQ, residues 284 288 289 292 302 303 TYGVAM — fold induction (PhoP, residues 12 14 15 18 19 LWHCS (Escherichia coli, UniProt P23836); Sort-seq, item: YFP reporter; E. coli; PhoQ-PhoP variant library, with: 10 µM Mg2+; reference: high Mg2+ state, higher = stronger signaling): 5.48 and 14.2
